Measurements of several laboratories.
Lines come from different studies, so protocols differ. Numbers after ± are the reported error.

| Structure (SMILES) | cell line | test | test system | setting | IC50 |
| --- | --- | --- | --- | --- | --- |
| Cc1ccc(C(C)C)c(OCc2ccc(C(=O)N/N=C/c3cccc(O)c3O)cc2)c1 | HCC4017 | cell growth or viability, MTS | – | 96 h | 1.3 µM |
| COc1cc2c(NC3CCN(C(C)C)CC3)nc(N3CCC(F)(F)CC3)nc2cc1OCCCN1CCCC1 | 22Rv1 | cell growth or viability, CCK-8 | – | 7 days | > 10 µM |
| COC(=O)[C@H]1[C@H]2C[C@H]3O[C@@]4(CCN3C[C@H]2C[C@@H](OC(=O)c2cc(OC)c(OC)c(OC)c2)[C@@H]1OC)C(=O)Nc1cc(OC)c(Br)cc14 | CAPAN-1 | cell growth or viability, crystal violet | – | 72 h | 88.1 µM |
| CC1(C)CCC(CN2CCN(c3ccc(C(=O)NS(=O)(=O)c4ccc(NCC5COCCO5)c([N+](=O)[O-])c4)c(N4CCCOc5nc6[nH]ccc6cc54)c3)CC2)=C(c2ccc(Cl)cc2)C1 (stereo not shown) | primary human CLL cells, treatment-naive | apoptosis, TMRM and annexin V | – | 18 h | 5.6e-05 µM |
| CCC(=O)N1CCN(c2ccc(NC(=O)c3ccc([N+](=O)[O-])o3)cc2Cl)CC1 | LDR | cell viability, MTS | – | 4 days | 1.4 µM |
| N=C(N/N=C/c1ccc(Cl)cc1)N/N=C/c1ccc(Cl)cc1 | IMR-90 | cell growth or viability, crystal violet | – | 72 h | 43.5 µM |
| Cc1cc(Cl)cc(-c2ccnc3cc(CN4C(=O)C5C(C4=O)C5(C)C)sc23)c1C[C@@H]1CNCCO1 (stereo partly shown) | CAPAN-1 | cell growth or viability, SRB | – | 5 days | 0.17 µM |
| CO[C@@H]1[C@@H](O[C@@H]2O[C@H](C)[C@@H](O[C@H]3C[C@@](C)(O)[C@@H](OC(=O)c4ccc(C(C)(C)C)cc4)[C@H](C)O3)[C@H](N(C)C)[C@H]2O)[C@@H](CC=O)C[C@@H](C)[C@@H](O[C@H]2CC[C@H](N(C)C)[C@@H](C)O2)/C=C/C=C/C[C@@H](C)OC(=O)C[C@H]1O | HGC-27 | cell growth or viability, CCK-8 | – | 72 h | 2.31 µM |
| CC(C)N(C[C@H]1O[C@@H](n2cnc3c(N)ncnc32)[C@H](O)[C@@H]1O)C1CC2CN(Cc3ccc(S(C)(=O)=O)cc3)CC2C1 (stereo partly shown) | H460 R231Q | cell proliferation, CCK-8 | – | 72 h | 47.7 ± 1.72 µM |
| C1=[N+]2CCCC[N+]3=Cc4ccc5[n]4[Au-]23[n]2c1ccc2-c1nc2ccccc2nc1-5.F[P-](F)(F)(F)(F)F | NCI60 human cancer panel | – | – | mean of all cell lines | 16 µM |
| CCC(C(=O)O)C1CCC(C)C(C(C)C(O)C(C)C(=O)C(CC)C2OC3(C=CC(NCc4cn(CCCO)nn4)C4(CCC(C)(C5CCC(O)(CC)C(C)O5)O4)O3)C(C)CC2C)O1 (stereo not shown) | HMLER CD24high/CD44low | cell viability, CellTiter-Blue | – | 72 h | 23.7 ± 0.9 µM |
| N[C@@H](CCC(=O)N[C@@H](CS[Se]Cc1ccc(-c2cc(C(F)(F)F)nn2-c2ccc(S(N)(=O)=O)cc2)cc1)C(=O)NCC(=O)O)C(=O)O | 1205 Lu melanoma cells | cell viability, MTS | – | 48 h | 17.2 ± 1.6 µM |
| COc1cc(NC(=O)c2ccc(Cl)nc2)ccc1C(=O)Nc1ccc(Cl)c(-c2nc3ccccc3[nH]2)c1 | NIH3T3-Gli-Luc | Hedgehog signalling, Gli-luciferase reporter | – | added: Shh-conditioned medium | 0.86 ± 0.09 µM |
| COc1ncc(-c2ccc3c(Nc4cc(Oc5cc(F)cc(F)c5)cc(C(=O)O)c4)c(S(=O)(=O)NC4CC4)cnc3c2)c(OC)n1 | SNU-398 | lactate production, refers to: lactate in supernatant | – | 6 h | 0.8 µM |
| Nc1cccc[n+]1CCCCC[n+]1ccccc1N | 3T3-L1 | cell viability, MTT | – | 72 h | > 100 µM |
| NS(=O)(=O)c1ccc(/N=N/c2ccc(O)nc2O)cc1 | LNCaP | cell growth | – | 72 h | no inhibition |
| N=C(S)N/N=C/c1ncc(C(F)(F)F)cc1Cl | LDR | cell viability, MTS | – | 4 days | 12 µM |

| Structure (SMILES) | cell line | test | test system | setting | IC50 |
| --- | --- | --- | --- | --- | --- |
| CO[C@@H]1[C@@H](O[C@@H]2O[C@H](C)[C@@H](O[C@H]3C[C@@](C)(O)[C@@H](OC(=O)C4CCCCC4)[C@H](C)O3)[C@H](N(C)C)[C@H]2O)[C@@H](CC=O)C[C@@H](C)[C@@H](O[C@H]2CC[C@H](N(C)C)[C@@H](C)O2)/C=C/C=C/C[C@@H](C)OC(=O)C[C@H]1O | HGC-27 | cell growth or viability, CCK-8 | – | 72 h | 4.27 µM |
| CC(C)Oc1ccc(S(=O)(=O)c2ccc(Oc3ccc(C(=O)C(Cl)Cl)cc3[N+](=O)[O-])cc2)cc1 | NCI-H1299 | cell growth or viability, MTT | – | 72 h | 0.33 to 0.88 µM |
| N=C(N)NCCC[C@H](N)C(=O)N[C@H](CC(=O)N[C@@H](CC(=O)O)C(=O)O)c1cccc2ccccc12 | BT-474 (HER2-overexpressing) | – | – | – | > 50 µM |
| CCCC(=O)N1CCN(c2ccc(NC(=O)c3ccc([N+](=O)[O-])o3)cc2Cl)CC1 | HCC4017 | cell growth or viability, MTS | – | 96 h | 8 µM |
| COC(=O)CCC(=O)[O][Pt-2]1([OH])([Cl])([Cl])[NH2+]CC[N+]1(C)C | CH1 | cell growth or viability, MTT | – | 96 h | 3.1 µM |
| Cn1cc(-c2cc(N3CCCS3(=O)=O)ccc2N[C@H]2CC[C@@](C)(O)CC2)c2cc[nH]c2c1=O | Light II cells | GLI reporter gene, inhibitor | – | Hedgehog pathway | 0.00158 ± 0.00066 µM |
| C=CC(=O)N1C[C@H](C)N(c2nc(OC[C@@]34CCCN3C[C@H](F)C4)nc3c(F)c(-c4ccc(F)c5sc(N)c(C#N)c45)c(C(F)(F)F)cc23)C[C@H]1C | KRAS G12C cell lines | refers to: pAKT | – | 4 h | < 0.01 µM |
| C#CCN(CC(=O)O[C@H]1[C@H](C)O[C@@H](O[C@H]2[C@H](N(C)C)[C@@H](O)[C@H](O[C@H]3[C@@H](CC=O)C[C@@H](C)[C@@H](O[C@H]4CC[C@H](N(C)C)[C@@H](C)O4)/C=C/C=C/C[C@@H](C)OC(=O)C[C@@H](O)[C@@H]3OC)O[C@@H]2C)C[C@@]1(C)O)C(=O)c1ccc(C(F)(F)F)cc1 | HGC-27 | cell viability, CCK-8 | – | 72 h | 0.19 ± 0.02 µM |
| CCN(CC)CCNC(=O)c1c(C)[nH]c(/C=C2\C(=O)Nc3ccc(F)cc32)c1C | U138-MG | cell growth or viability, MTT | – | 72 h | 6 µM |
| N=C(N/N=C/c1ccccc1)N/N=C/c1ccccc1 | IMR-90 | cell growth or viability, crystal violet | – | 72 h | 23.6 µM |
| Cc1cc(C)c(-n2c3c([n+](-c4c(C)cc(C)cc4C)[c]2[Au-][Cl])-c2cccc4cccc-3c24)c(C)c1 | 3D spheroids | cell growth | – | – | > 50 µM |
| COc1cc2c(cc1C(C)O)CCC1C(C)(C)c3nc(C)ncc3C[C@]21C (mixture of isomers) | TM3 | cell growth or viability, SRB | – | 24 h | > 100 µM |
| CC(=O)c1cnc(N)nc1N1CC[C@H]1c1nn2ccc(Cl)c2c(=O)n1-c1ccccc1 | B cells | refers to: CD69 | human whole blood | added: anti-IgM | 0.063 µM |
| Nc1ccc(C(=O)NN=Cc2ccc(OCC(=O)Nc3ccc(Cl)cc3)cc2)cc1 | WISH | cell viability, MTT | – | 24 h | 25.9 ± 0.6 µg/mL |
| C[C@]12CC/C(=N\OCCN3CCCCC3)C=C1CCC1C2CC[C@]2(C)/C(=C/c3ccccn3)CCC12 (stereo partly shown) | G-361 | cell growth or viability, resazurin | – | 72 h | 4.7 µM |
| Cc1ccc(C(C)C)cc1.Oc1ccccc1C=NNC1=Nc2ccccc2-c2[nH]c3ccc(Br)cc3c2C1.[Cl-].[Cl][Ru+] | CH1 | cell growth or viability, MTT | – | 96 h | 0.67 µM |
| CCCCCCCC(=O)Oc1c(C)c(OC)c2c(c1C)OC(=O)[C@@H](CCCCCC)[C@]2(O)/C=C/c1ccccc1 (racemic) | KKU-M213 | cell growth or viability, SRB | – | 72 h | > 50 µM |

Excerpt of the above:
| Structure (SMILES) | cell line | test | test system | setting | IC50 |
| --- | --- | --- | --- | --- | --- |
| COc1ncc(-c2ccc3c(Nc4cc(Oc5cc(F)cc(F)c5)cc(C(=O)O)c4)c(S(=O)(=O)NC4CC4)cnc3c2)c(OC)n1 | SNU-398 | lactate production, refers to: lactate in supernatant | – | 6 h | 0.8 µM |
| C#CCN(CC(=O)O[C@H]1[C@H](C)O[C@@H](O[C@H]2[C@H](N(C)C)[C@@H](O)[C@H](O[C@H]3[C@@H](CC=O)C[C@@H](C)[C@@H](O[C@H]4CC[C@H](N(C)C)[C@@H](C)O4)/C=C/C=C/C[C@@H](C)OC(=O)C[C@@H](O)[C@@H]3OC)O[C@@H]2C)C[C@@]1(C)O)C(=O)c1ccc(C(F)(F)F)cc1 | HGC-27 | cell viability, CCK-8 | – | 72 h | 0.19 ± 0.02 µM |
| COC(=O)[C@H]1[C@H]2C[C@H]3O[C@@]4(CCN3C[C@H]2C[C@@H](OC(=O)c2cc(OC)c(OC)c(OC)c2)[C@@H]1OC)C(=O)Nc1cc(OC)c(Br)cc14 | CAPAN-1 | cell growth or viability, crystal violet | – | 72 h | 88.1 µM |
| Cn1cc(-c2cc(N3CCCS3(=O)=O)ccc2N[C@H]2CC[C@@](C)(O)CC2)c2cc[nH]c2c1=O | Light II cells | GLI reporter gene, inhibitor | – | Hedgehog pathway | 0.00158 ± 0.00066 µM |
| CC(C)N(C[C@H]1O[C@@H](n2cnc3c(N)ncnc32)[C@H](O)[C@@H]1O)C1CC2CN(Cc3ccc(S(C)(=O)=O)cc3)CC2C1 (stereo partly shown) | H460 R231Q | cell proliferation, CCK-8 | – | 72 h | 47.7 ± 1.72 µM |
| NS(=O)(=O)c1ccc(/N=N/c2ccc(O)nc2O)cc1 | LNCaP | cell growth | – | 72 h | no inhibition |
